Measured values of several laboratories.
Each line is one published result; not all experiments were run side by side. ± marks the error that the study gave.

C[C@H](NC(=O)COC(=O)[C@H](C)NC(=O)CO)C(=O)O
depolymerization half-life (water; pH 7, 25 °C): 37.8 min

CCCC(CCC)NC(=O)c1ccc(OC2OC(C(=O)O)C(O)C(O)C2O)c(O)c1 (centres unmarked)
Tmax (male Sprague-Dawley rat, plasma; oral, 200 mg/kg of parent drug): 24 h

O=C(O)C1OC(OC2C(COS(=O)(=O)O)OC(OC3C(C(=O)O)OC(OC4C(COS(=O)(=O)O)OC(OC5C(C(=O)O)OC(OC6C(COS(=O)(=O)O)OC(OC7C(C(=O)O)OC(OC8C(COS(=O)(=O)O)OC(OC9C(C(=O)O)OC(OC%10C(COS(=O)(=O)O)OC(OC%11C(C(=O)O)OC(Oc%12ccc([N+](=O)[O-])cc%12)C(O)C%11O)C(NS(=O)(=O)O)C%10O)C(OS(=O)(=O)O)C9O)C(NS(=O)(=O)O)C8O)C(OS(=O)(=O)O)C7O)C(NS(=O)(=O)O)C6O)C(OS(=O)(=O)O)C5O)C(NS(=O)(=O)O)C4O)C(OS(=O)(=O)O)C3O)C(NS(=O)(=O)O)C2OS(=O)(=O)O)C(O)C(O)C1OC1OC(COS(=O)(=O)O)C(O)C(O)C1NS(=O)(=O)O (centres unmarked)
organ-to-body weight ratio (rat, kidneys; intravenous, 3600 µg/kg per day, 7 days, day 8): 0.7 ± 0.04

CC[C@H](C)[C@H](NC(=O)[C@H](Cc1ccccc1)NC(=O)[C@H](CC(=O)O)NC(=O)[C@H](CCCNC(=N)N)NC(=O)[C@H](Cc1ccccc1)NC(=O)[C@H](Cc1ccccc1)NC(=O)[C@H](CCN)NC(=O)[C@H](CO)NC(=O)[C@H](CC(C)C)NC(=O)[C@H](CCCNC(=N)N)NC(=O)[C@H](CCSC)NC(=O)[C@H](C)N)C(=O)N[C@@H](CCN)C(=O)N[C@@H](CCC(N)=O)C(=O)N[C@@H](CCCNC(=N)N)C(=O)N[C@@H](CCCCN)C(=O)N[C@@H](CCCCN)C(=O)O
helicity (circular dichroism; 20% TFE in PBS; 200 µM, pH 7.4, 25 °C): 18.4%

Cc1ccccc1/N=N/c1ccc(/N=N/c2c(O)ccc3ccccc23)c(C)c1
measured concentration (extracted rat blood QC samples; 0.5 µg/L, 4 h, room temperature, short-term stability): 0.483 µg/L

COC[C@H]1C[C@H]2[C@@H](C)SC(N)=N[C@@]2(c2ccc(F)cc2F)CO1
scaled CLint (metabolic stability; human, liver microsomes): < 8 mL/min/kg

CC[C@H](C)[C@H](NC(=O)[C@@H]1CCCN1C(=O)CNC(=O)[C@H](Cc1ccccc1)NC(=O)[C@H](CC(N)=O)NC(=O)[C@H](CC(N)=O)NC(=O)[C@H](CO)NC(=O)[C@H](CO)NC(=O)[C@H](Cc1c[nH]cn1)NC(=O)[C@@H](NC(=O)[C@H](CC(C)C)NC(=O)[C@H](Cc1ccccc1)NC(=O)[C@H](CC(N)=O)NC(=O)[C@H](C)NC(=O)[C@H](CC(C)C)NC(=O)[C@H](CCCNC(=N)N)NC(=O)[C@H](CCC(N)=O)NC(=O)[C@@H](NC(=O)[C@H](C)NC(=O)[C@@H]1CSSC[C@H](NC(=O)[C@@H](N)CCCCN)C(=O)N[C@@H](CC(N)=O)C(=O)N[C@@H]([C@@H](C)O)C(=O)N[C@@H](C)C(=O)N[C@@H]([C@@H](C)O)C(=O)N1)[C@@H](C)O)C(C)C)C(=O)N[C@@H](CC(C)C)C(=O)N[C@@H](CO)C(=O)N[C@@H](CO)C(=O)N[C@H](C(=O)N[C@@H](CC(N)=O)C(=O)N[C@H](C(=O)NCC(=O)N[C@@H](CO)C(=O)N[C@@H](CC(N)=O)C(=O)N[C@H](C(=O)N[C@@H](Cc1ccc(O)cc1)C(N)=O)[C@@H](C)O)C(C)C)[C@@H](C)O
half-time of amyloid formation (thioflavin T fluorescence; phosphate buffer; 16 µM, pH 7.4, 25 °C): 42.8 ± 0.5 h

CC(C)(Sc1ccncc1-c1ccc(C#N)c2ccccc12)C(=O)OC1OC(C(=O)O)C(O)C(O)C1O (centres unmarked)
Cmax increase (adult men, plasma; oral, 15 mg verinurad, moderate renal impairment; reference: normal renal function): 112%

COc1ccc2cc(-c3ccc(-c4ccc(C)cn4)nc3)oc2c1
fluorescence lifetime (TCSPC; EtOH): 2.02 ns

Cn1c(=O)oc2ccc(-c3ccc(CC(C#N)NC(=O)C4CNCCCO4)c(F)c3)cc21 (centres unmarked)
lymphadenopathy incidence (human; oral, 10 mg once daily, TEAE, multiple ascending dose): 0%

CC[C@H](C)[C@H](NC(=O)[C@H](Cc1ccccc1)NC(=O)[C@H](CC(=O)O)NC(=O)[C@H](CN)NC(=O)[C@H](Cc1ccccc1)NC(=O)[C@H](Cc1ccccc1)NC(=O)[C@H](CCCCN)NC(=O)[C@H](CCCCN)NC(=O)[C@H](CC(C)C)NC(=O)[C@H](CCCNC(=N)N)NC(=O)[C@H](CCSC)NC(=O)[C@H](C)N)C(=O)N[C@@H](CC(C)C)C(=O)N[C@@H](CCC(N)=O)C(=O)N[C@@H](CCCNC(=N)N)C(=O)N[C@@H](CCCCN)C(=O)N[C@@H](CCCCN)C(=O)O
helicity (circular dichroism; 20% TFE in PBS; 200 µM, pH 7.4, 25 °C): 30.1%

CC1(C)C(=CC=C2C[N+](C)(C)CC(C=CC3=[N+](CCCCCC(=O)O)c4ccccc4C3(C)C)=C2Cl)N(CCCCCC(=O)O)c2ccccc21
elimination half-life (fluorescence; CD-1 mouse, healthy, plasma; intravenous, 25 nmol): 100 min

N=C(N)NCCC[C@@H]1NC(=O)[C@H](Cc2c[nH]c3ccccc23)NC(=O)[C@@H](CC2CCCCC2)NC(=O)[C@@H]2CCCN2C(=O)[C@@H](NC(=O)CCc2ccccc2)CCCNC1=O
beta elimination rate constant (C57BL/6J mouse, spinal cord; subcutaneous, 1 mg/kg, single dose, two-compartment model): 0.32 h⁻¹

COCCOCCOCCOCCOCCOCCOCCOCCOCCOCCOCCOCCOCCOCCOCCOCCOCCOCCOCCOCCOCCOCCNC(=O)CCC1(Cc2ccccc2)c2ccccc2-c2ccc(-c3sc(-c4c5c(c(-c6sc(-c7ccc8c(c7)C(CCC(=O)NCCOCCOCCOCCOCCOCCOCCOCCOCCOCCOCCOCCOCCOCCOCCOCCOCCOCCOCCOCCOCCOCCOC)(Cc7ccccc7)c7ccccc7-8)c7c6OCCO7)c6nsnc46)N=S=N5)c4c3OCCO4)cc21 (centres unmarked)
zeta potential (aqueous solution): -22.4 ± 0.5 mV

CC[C@@H](C)[C@H]1NC(=O)[C@@H]([C@H](C)O)NC(=O)[C@@H](Cc2c[nH]cn2)NC(=O)CNC(=O)[C@@H](CCCNC(=N)N)NC(=O)CNC(=O)[C@@H](Cc2ccccc2)NC1=O
concentration (Wistar rat, female, vitreous; ocular, 10 µL eye drop, 3 h): ~391 nM

O=C(NCCCN(CCCCN(CCCNC(=O)c1cccc(=O)n1[O-])C(=O)c1cccc(=O)n1[O-])C(=O)c1cccc(=O)n1[O-])c1cccc(=O)n1[O-].[89Zr+4]
intact complex (radio-TLC; PBS; 5 d, pH 7.4, 37 °C, added: Gd^3+ 10-fold excess): 96.5 ± 2.9%

CC12CC(c3ccc(S(C)(=O)=O)cc3)C3=C4CCC(=O)C=C4CCC3C1CCC2(O)C(F)(F)C(F)(F)F (centres unmarked)
clearance (human, plasma; intravenous, 15.7 µg): ~117 mL/min

CNC(=O)c1ccc(N2CCN(Cc3ccc4nc(C)c(=O)[nH]c4c3F)CC2)c([18F])n1
remaining intact tracer (rat plasma; 90 min): > 95%

CC(O)c1cc(Cl)ccc1Cn1c(=S)[nH]c(=O)c2[nH]ccc21 (centres unmarked)
exposure ratio (dog, both sexes, plasma; 100 mg/kg; reference: dog over human 5 mg): not detected

CC(=O)N[C@@H](CC(N)=O)C(=O)NCC(=O)N[C@@H](C)C(=O)N[C@@H](C)C(N)=O
half-life of Asn form (1H NMR; sodium phosphate buffer 50 mM; pH 7.4, 46 °C): 13.9 h

CC[C@H](C)[C@H](NC(=O)[C@H](N)Cc1ccc(O)cc1)C(=O)N[C@H]1CSSC[C@@H](C(=O)N(C)[C@H](C(N)=O)[C@@H](C)CC)NC(=O)[C@H](CCCNC(=N)N)NC(=O)[C@H](Cc2c[nH]cn2)NC(=O)[C@H](C)NC(=O)CN(C)C(=O)[C@H](Cc2c[nH]c3ccccc23)NC(=O)[C@H](CC(=O)O)NC(=O)[C@H](CCC(N)=O)NC(=O)[C@H](Cc2cn(C)c3ccccc23)NC(=O)[C@H](C(C)C)NC1=O
recovery (UPLC-ESI-MS; human plasma; 3.58 µg/mL, 48 h, 25 °C, bench-top after SPE): 99.7 ± 0.3%

O=C(CCCCC[N+]#[C][99Tc-5]([C]#[N+]CCCCCC(=O)N[C@H]1C(O)O[C@H](CO)[C@@H](O)[C@@H]1O)([C]#[N+]CCCCCC(=O)N[C@H]1C(O)O[C@H](CO)[C@@H](O)[C@@H]1O)([C]#[N+]CCCCCC(=O)N[C@H]1C(O)O[C@H](CO)[C@@H](O)[C@@H]1O)([C]#[N+]CCCCCC(=O)N[C@H]1C(O)O[C@H](CO)[C@@H](O)[C@@H]1O)[C]#[N+]CCCCCC(=O)N[C@H]1C(O)O[C@H](CO)[C@@H](O)[C@@H]1O)N[C@H]1C(O)O[C@H](CO)[C@@H](O)[C@@H]1O (some centres unmarked)
elimination half-life (CD-1 mouse, healthy, blood): 21.2 min

COC1C=COC2(C)Oc3c(C)c(O)c4c(c3C2=O)C2=NC3(CCN(CC(C)C)CC3)NC2=C(NC(=O)C(C)=CC=CC(C)C(O)C(C)C(O)C(C)C(OC(=O)Nc2cccnn2)C1C)C4=O (centres unmarked)
elimination half-life (CD-1 mouse female, plasma): 150 min

CC[C@@H](C)[C@@H](NC(=O)[C@@H](C)NC(=O)[C@@H](CCCCN)NC(=O)[C@@H](CC(C)C)NC(=O)[C@@H](C)NC(=O)[C@H](NC(=O)[C@@H](Cc1c[nH]cn1)NC(=O)[C@@H](CC(C)C)NC(=O)[C@H](NC(=O)[C@H](NC(=O)[C@@H](CCCCN)NC(=O)[C@H](NC(=O)[C@@H](C)NC(=O)[C@@H](CO)NC(=O)[C@@H](CCCCN)NC(=O)[C@@H](Cc1ccccc1)NC(=O)[C@H](NC(=O)[C@@H](CCCCN)NC(=O)[C@@H](CC(C)C)NC(=O)[C@@H](Cc1ccccc1)NC(=O)[C@@H](CO)NC(=O)[C@@H](CCCCN)NC(=O)[C@@H](Cc1c[nH]c2ccccc12)NC(=O)[C@@H](CCCCN)NC(C)=O)[C@H](C)O)C(C)C)[C@H](C)O)C(C)C)[C@H](C)O)C(=O)N[C@H](CO)C(=O)N[C@H](CO)C(N)=O
self-association parameter (RP-HPLC temperature profiling; pH 2, 5-80 °C, unit not given; reference: control peptide): 7.14

CC1=CC(C)=[N+]2C1=C(CO)c1c(C)cc(C)n1[B-]2(F)F
photostability (DMSO/MeOH 1:1; 10 min, 510 nm irradiation 2.44 J/cm2): stable

CC(C)[C@H](NC(=O)CNC(=O)[C@H](CCC(N)=O)NC(=O)[C@H](C)N)C(=O)O
AUC(0-last) (LC-MS/MS; human, plasma; intravenous, 20 mg/kg three times daily, day 2, first dose, 10 min infusion, geometric mean): 393 µg·h/L

A few entries again:
CCCC(CCC)NC(=O)c1ccc(OC2OC(C(=O)O)C(O)C(O)C2O)c(O)c1 (centres unmarked)
Tmax (male Sprague-Dawley rat, plasma; oral, 200 mg/kg of parent drug): 24 h

O=C(O)C1OC(OC2C(COS(=O)(=O)O)OC(OC3C(C(=O)O)OC(OC4C(COS(=O)(=O)O)OC(OC5C(C(=O)O)OC(OC6C(COS(=O)(=O)O)OC(OC7C(C(=O)O)OC(OC8C(COS(=O)(=O)O)OC(OC9C(C(=O)O)OC(OC%10C(COS(=O)(=O)O)OC(OC%11C(C(=O)O)OC(Oc%12ccc([N+](=O)[O-])cc%12)C(O)C%11O)C(NS(=O)(=O)O)C%10O)C(OS(=O)(=O)O)C9O)C(NS(=O)(=O)O)C8O)C(OS(=O)(=O)O)C7O)C(NS(=O)(=O)O)C6O)C(OS(=O)(=O)O)C5O)C(NS(=O)(=O)O)C4O)C(OS(=O)(=O)O)C3O)C(NS(=O)(=O)O)C2OS(=O)(=O)O)C(O)C(O)C1OC1OC(COS(=O)(=O)O)C(O)C(O)C1NS(=O)(=O)O (centres unmarked)
organ-to-body weight ratio (rat, kidneys; intravenous, 3600 µg/kg per day, 7 days, day 8): 0.7 ± 0.04
